Published values pooled from the literature.
Each numbered part is a random draw from the data of one study; scales do not carry over between parts.
UniProt P08631, sequence (whole entry, looked up): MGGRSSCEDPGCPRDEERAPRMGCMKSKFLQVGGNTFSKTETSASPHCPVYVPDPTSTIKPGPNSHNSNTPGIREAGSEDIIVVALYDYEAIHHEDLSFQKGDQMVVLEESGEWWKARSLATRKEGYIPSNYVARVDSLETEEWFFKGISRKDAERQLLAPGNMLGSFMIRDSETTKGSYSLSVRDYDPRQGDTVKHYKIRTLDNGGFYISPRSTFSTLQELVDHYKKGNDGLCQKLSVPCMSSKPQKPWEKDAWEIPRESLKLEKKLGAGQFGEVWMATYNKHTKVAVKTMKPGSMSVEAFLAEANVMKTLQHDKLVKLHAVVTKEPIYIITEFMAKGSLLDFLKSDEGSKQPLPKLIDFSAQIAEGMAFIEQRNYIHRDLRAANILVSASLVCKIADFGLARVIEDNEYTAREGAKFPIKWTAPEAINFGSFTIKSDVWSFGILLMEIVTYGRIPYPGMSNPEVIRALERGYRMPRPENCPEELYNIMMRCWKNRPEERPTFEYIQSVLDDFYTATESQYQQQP
UniProt Q96L34, sequence (whole entry, looked up): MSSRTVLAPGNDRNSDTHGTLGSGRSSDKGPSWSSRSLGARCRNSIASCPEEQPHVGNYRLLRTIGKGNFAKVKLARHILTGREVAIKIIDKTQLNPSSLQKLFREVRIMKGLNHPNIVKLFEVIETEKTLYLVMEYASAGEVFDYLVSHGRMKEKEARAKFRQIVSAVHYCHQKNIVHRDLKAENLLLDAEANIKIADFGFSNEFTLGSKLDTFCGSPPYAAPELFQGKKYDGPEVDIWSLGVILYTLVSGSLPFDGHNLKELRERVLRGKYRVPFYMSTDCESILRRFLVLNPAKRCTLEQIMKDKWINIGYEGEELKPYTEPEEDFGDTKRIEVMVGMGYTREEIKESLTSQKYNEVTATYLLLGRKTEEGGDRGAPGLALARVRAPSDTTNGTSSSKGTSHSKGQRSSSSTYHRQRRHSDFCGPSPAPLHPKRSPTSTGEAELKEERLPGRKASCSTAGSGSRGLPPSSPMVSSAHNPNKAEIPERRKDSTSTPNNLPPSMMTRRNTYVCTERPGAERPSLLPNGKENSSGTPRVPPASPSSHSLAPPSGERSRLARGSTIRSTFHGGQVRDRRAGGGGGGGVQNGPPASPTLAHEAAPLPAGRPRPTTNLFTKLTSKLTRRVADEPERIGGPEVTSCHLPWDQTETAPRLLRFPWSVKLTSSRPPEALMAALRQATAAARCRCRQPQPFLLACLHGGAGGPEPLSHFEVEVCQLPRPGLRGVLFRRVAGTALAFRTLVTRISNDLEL
UniProt P00519, sequence (whole entry, unmodified, looked up): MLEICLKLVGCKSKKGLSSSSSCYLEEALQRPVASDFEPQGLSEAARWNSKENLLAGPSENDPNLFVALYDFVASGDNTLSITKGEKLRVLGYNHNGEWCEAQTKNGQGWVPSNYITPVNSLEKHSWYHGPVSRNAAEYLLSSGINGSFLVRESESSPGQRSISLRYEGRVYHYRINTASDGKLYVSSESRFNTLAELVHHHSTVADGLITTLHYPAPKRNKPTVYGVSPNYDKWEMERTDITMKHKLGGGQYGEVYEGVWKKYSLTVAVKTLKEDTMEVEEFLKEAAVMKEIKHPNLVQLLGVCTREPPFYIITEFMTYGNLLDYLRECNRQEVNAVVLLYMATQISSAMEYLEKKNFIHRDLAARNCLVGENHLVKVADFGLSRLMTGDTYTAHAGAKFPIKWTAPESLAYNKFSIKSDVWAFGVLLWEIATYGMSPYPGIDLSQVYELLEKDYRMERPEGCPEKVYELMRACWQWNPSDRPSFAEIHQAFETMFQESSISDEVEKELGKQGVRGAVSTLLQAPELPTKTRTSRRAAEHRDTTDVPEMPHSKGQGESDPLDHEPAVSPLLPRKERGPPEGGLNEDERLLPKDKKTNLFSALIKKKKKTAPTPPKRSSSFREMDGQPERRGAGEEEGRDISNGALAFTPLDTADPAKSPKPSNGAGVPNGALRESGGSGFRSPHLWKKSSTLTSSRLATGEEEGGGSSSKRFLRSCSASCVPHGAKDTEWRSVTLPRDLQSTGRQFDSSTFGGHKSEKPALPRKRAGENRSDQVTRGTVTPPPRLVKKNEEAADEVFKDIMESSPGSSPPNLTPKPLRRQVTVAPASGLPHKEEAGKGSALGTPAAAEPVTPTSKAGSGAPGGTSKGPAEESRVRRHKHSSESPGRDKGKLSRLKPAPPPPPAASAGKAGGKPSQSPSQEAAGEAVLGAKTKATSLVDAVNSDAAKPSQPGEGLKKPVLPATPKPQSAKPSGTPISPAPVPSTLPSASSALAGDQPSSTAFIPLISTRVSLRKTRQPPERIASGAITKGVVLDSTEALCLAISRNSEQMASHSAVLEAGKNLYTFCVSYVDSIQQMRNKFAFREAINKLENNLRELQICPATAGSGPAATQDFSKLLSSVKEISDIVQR

Sample 1
Target: TAR DNA-binding protein 43, full length, His tag (TARDBP, Homo sapiens, UniProt Q13148, residues 1-414)
Method: RNA Bind-n-Seq
Form: RNA
Sample: in vitro
Tested at: 20 nM
Notes: 6-mer, flanks averaged, single round
With: 150 mM LiCl
Reference: input library
Reading: higher = stronger binding
Measurement: 6-mer enrichment (R)
UCUAGC: 0.846
AUAGCC: 0.895
AGGCAA: 0.863
ACACAU: 0.901
CCGAGA: 0.991
CCUGCG: 0.945
GGCUCC: 0.983
UCGGGG: 1.09

Sample 2
SMILES: Nc1cnc(N2CCc3cc(S(=O)(=O)Nc4c(F)cc(Cl)cc4F)cc(N4CCCC4=O)c32)nc1
Observed: cell-free assay
Method: competition with immobilised ligand
Tested at: 1 µM
Measurement: remaining binding
Tyrosine-protein kinase ABL1, non-phosphorylated (ABL1, Homo sapiens, UniProt P00519, F317L): 99%
MARK4 (Homo sapiens, UniProt Q96L34): 79%
HCK (Homo sapiens, UniProt P08631): 100%

Sample 3
Target: Centromere-binding protein 1, full length, N-terminal tag (CBF1, Saccharomyces cerevisiae, UniProt P17106, residues 1-351)
UniProt P17106, sequence (whole entry, looked up): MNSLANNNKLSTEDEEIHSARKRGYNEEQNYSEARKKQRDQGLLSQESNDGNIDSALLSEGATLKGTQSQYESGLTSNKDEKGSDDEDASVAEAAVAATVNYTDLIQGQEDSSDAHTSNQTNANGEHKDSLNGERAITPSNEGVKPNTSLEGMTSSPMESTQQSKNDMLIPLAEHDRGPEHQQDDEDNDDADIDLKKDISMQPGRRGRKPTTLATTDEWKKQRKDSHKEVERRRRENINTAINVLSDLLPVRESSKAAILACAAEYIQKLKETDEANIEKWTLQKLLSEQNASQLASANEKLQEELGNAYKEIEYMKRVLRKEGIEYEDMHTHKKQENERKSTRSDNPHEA
Method: protein-binding microarray
Form: double-stranded DNA, one strand shown
Sample: in vitro
Tested at: 0.8 µM
Notes: whole 60-bp probe, no competitor
Reading: higher = stronger binding
Measurement: fluorescence intensity
Constant ends, left off below: … GTCTTGATTCGCTTGACGCTGCTG
GAACACAATAACAGCATCATCACTATAAAGAAATAG: 607 a.u.
CTATAGGAACTACACCTGACAGCAACTTGCGGCTTC: 726 a.u.
CCTAACTACTATAATCACACTGAATAGCTTCGTACA: 527 a.u.
CTAGAAATAATCGATGGTGTGAACTAAAGTCCTTTC: 518 a.u.
CTACTGATTAACAAGCACGTAACGGAGACCAAATTC: 573 a.u.
CTATCAGATGTGGTGATCATGAGAGCGAATTATTTC: 721 a.u.
GAAATTATCACTCATCACCATGAACATTCAGTATAG: 565 a.u.
CTAATATGTTTTTCATACGTGATTTGAAGTTTTTTC: 571 a.u.

Single results of other studies
CCOC(=O)[C@@H]1CSCC(=O)N[C@@H](CC)C(=O)N(C)[C@@H](C)C(=O)N[C@H](CC(C)C)C(=O)N2CCC[C@H]2C(=O)N(CC)CC(=O)N[C@@H](CC(C)C)C(=O)N(C)[C@@H](C)C(=O)N[C@@H](CC(C)C)C(=O)N1C — logD (hydrocarbon/water): -0.448

Some of these lines once more (sample 2):
Tyrosine-protein kinase ABL1, non-phosphorylated (ABL1, Homo sapiens, UniProt P00519, F317L): 99%
MARK4 (Homo sapiens, UniProt Q96L34): 79%
HCK (Homo sapiens, UniProt P08631): 100%
